Experimental data from different studies.
Each line is one published result; not all experiments were run side by side. ± marks the error that the study gave.
Toll-like receptor 1/2: Toll-like receptor 1/2 (Homo sapiens, UniProt O60603+Q15399)
uncharacterized protein: uncharacterized protein (Vulpes vulpes, UniProt A0A3Q7SVK8)
Tumor necrosis factor receptor superfamily member 9/Nectin-4: Tumor necrosis factor receptor superfamily member 9/Nectin-4 (Homo sapiens, UniProt Q07011+Q96NY8)

Structure (SMILES)	tested on	test	system	setting	how to read	measurement	value
CCCCC[C@H](O)/C=C/[C@H]1[C@H](O)CC(=O)[C@@H]1C/C=C\CCCC(=O)O	PTGER1 (Homo sapiens, UniProt P34995, H88A)	IP1 accumulation, agonist	AD293	EP1 H88A mutant		EC50	787 nM
O=c1ccn([C@@H]2O[C@H](COP(=O)(O)OP(=O)(O)OP(=O)(O)O)[C@@H](O)[C@H]2O)c(=O)[nH]1	P2Y purinoceptor 2 (P2RY2, Homo sapiens, UniProt P41231)	agonist, cell-based				EC50	592 nM
CCCCNc1ccc([N+](=O)[O-])cc1-n1cnc(-c2ccc([N+](=O)[O-])cc2)c1	Toll-like receptor 1/2	reporter gene, agonist	HEK-Blue hTLR2	24 h		EC50	> 100000 nM
Cc1nccnc1C	uncharacterized protein	cAMP, agonist	HEK293 transfected with uncharacterized protein			EC50	770000 ± 354000 nM
O=C(Nc1ccn(Cc2ccc(O)cc2C(F)(F)F)n1)c1c(F)cccc1F	KCNQ2 (Homo sapiens, UniProt O43526)	channel activity, agonist	cells overexpressing channel			EC50	> 10000 nM
Cn1cc(-c2ccc(-c3cncc(Cl)c3N3CCC4(CCNC4=O)CC3)cc2)cn1	COLO 205	microarray, measured: TPBG		concentration not given, 2 h, gene set 5T4	relative to: untreated cells	fold change in expression	2.55
CC(=O)c1cc([N+](=O)[O-])c(Sc2cccc(Cl)c2Cl)s1	USP5 (Homo sapiens, UniProt P45974)	enzyme activity, inhibitor				EC50	> 50000 nM
CCCC[C@@H]1NC(=O)[C@H](Cc2ccc(O)cc2)NC(=O)[C@@H]2CCCN2C(=O)[C@H](CC(=O)O)NC(=O)[C@H](C)NC(=O)[C@H](Cc2ccccc2)NC(=O)[C@@H]2CSCCC(=O)N3CN(CN(C3)C(=O)CCSC[C@@H](C(=O)N[C@@H](CNC(=O)CCOCCOCCOCCOCCOCCOCCOCCOCCOCCOCCOCCOCCn3cc(CCC(=O)NCCC(=O)N(C)CC(=O)N(C)CC(=O)N(C)CC(=O)N(C)CC(=O)N(C)CC(=O)N(C)CC(=O)N(C)CC(=O)N(C)CC(=O)N(C)CC(=O)N(C)CC(=O)N[C@H]4CSCCC(=O)N5CN6CN(C5)C(=O)CCSC[C@H](NC(=O)[C@@H](CC(=O)O)NC(=O)[C@H](Cc5cccc7ccccc57)NC(=O)[C@@H]5CCCN5C4=O)C(=O)N[C@@H](CCSC)C(=O)N[C@@H](CCCCNC(=N)N)C(=O)N[C@@H](CC(=O)O)C(=O)N[C@@H](Cc4c[nH]c5ccccc45)C(=O)N[C@@H](CO)C(=O)N[C@@H]([C@@H](C)O)C(=O)N4CCC[C@H]4C(=O)N4C[C@H](O)C[C@H]4C(=O)N[C@@H](Cc4c[nH]c5ccccc45)C(=O)N[C@H](C(N)=O)CSCCC6=O)nn3)C(N)=O)NC1=O)C(=O)CCSC[C@H](NC(=O)[C@H](C)NC(C)=O)C(=O)N[C@@H]([C@@H](C)CC)C(=O)N[C@@H](CCC(=O)O)C(=O)N[C@@H](CCC(=O)O)C(=O)NCC(=O)N[C@@H](CCC(N)=O)C(=O)N[C@@H](Cc1ccc(O)cc1)C(=O)N2	Tumor necrosis factor receptor superfamily member 9/Nectin-4	reporter gene, agonist	HT-1376 coculture with reporter cells			EC50	3.98 nM
CNc1ccc([N+](=O)[O-])cc1-n1cnc(-c2ccc(OC)cc2)c1	Toll-like receptor 1/2	reporter gene, agonist	HEK-Blue hTLR2	24 h		EC50	> 100000 nM
CCCC[C@@H]1NC(=O)[C@H](Cc2ccc(O)cc2)NC(=O)[C@@H]2CCCN2C(=O)[C@H](CC(=O)O)NC(=O)[C@H](C)NC(=O)[C@H](Cc2ccccc2)NC(=O)[C@@H]2CSCCC(=O)N3CN(CN(C3)C(=O)CCSC[C@@H](C(=O)N[C@@H](C)C(N)=O)NC1=O)C(=O)CCSC[C@H](NC(C)=O)C(=O)N[C@@H](CC(C)(C)C)C(=O)N1CCC[C@H]1C(=O)N[C@@H](CCC(=O)O)C(=O)N[C@H](CCCCNC(=O)CCc1cn(CCOCCOCCOCCOCCOCCC(=O)N[C@H]3CSCCC(=O)N4CN5CN(C4)C(=O)CCSC[C@H](NC(=O)[C@@H](CC(=O)O)NC(=O)[C@H](Cc4cccc6ccccc46)NC(=O)[C@@H]4CCCN4C3=O)C(=O)N[C@@H](CCSC)C(=O)N[C@@H](CCCCNC(=N)N)C(=O)N[C@@H](CC(=O)O)C(=O)N[C@@H](Cc3c[nH]c4ccccc34)C(=O)N[C@@H](CO)C(=O)N[C@@H]([C@@H](C)O)C(=O)N3CCC[C@H]3C(=O)N3C[C@H](O)C[C@H]3C(=O)N[C@@H](Cc3c[nH]c4ccccc34)C(=O)N[C@H](C(N)=O)CSCCC5=O)nn1)C(=O)N1CCC[C@H]1C(=O)N[C@@H](Cc1ccc(O)cc1)C(=O)N2	Tumor necrosis factor receptor superfamily member 9/Nectin-4	reporter gene, agonist	HT-1376 coculture with reporter cells			EC50	1.26 nM
NCCCC(=O)O	MRGPRD (Homo sapiens, UniProt Q8TDS7)	miniGq recruitment, agonist, BRET	HEK293T	wild type		EC50	112000 nM
CCCC[C@@H]1NC(=O)[C@H](Cc2ccc(O)cc2)NC(=O)[C@@H]2CCCN2C(=O)[C@H](CC(=O)O)NC(=O)[C@H](C)NC(=O)[C@H](Cc2ccccc2)NC(=O)[C@@H]2CSCCC(=O)N3CN(CN(C3)C(=O)CCSC[C@@H](C(=O)N[C@@H](CNC(=O)CCOCCOCCOCCOCCOCCOCCOCCOCCOCCOCCOCCOCCn3cc(CCC(=O)NCCC(=O)N(C)CC(=O)N(C)CC(=O)N(C)CC(=O)N(C)CC(=O)N(C)CC(=O)N(C)CC(=O)N(C)CC(=O)N(C)CC(=O)N(C)CC(=O)N(C)CC(=O)N[C@H]4CSCCC(=O)N5CN6CN(C5)C(=O)CCSC[C@H](NC(=O)[C@@H](CC(=O)O)NC(=O)[C@H](Cc5cccc7ccccc57)NC(=O)[C@@H]5CCCN5C4=O)C(=O)N[C@@H](CCSC)C(=O)N[C@@H](CCCCNC(=N)N)C(=O)N[C@@H](CC(=O)O)C(=O)N[C@@H](Cc4c[nH]c5ccccc45)C(=O)N[C@@H](CO)C(=O)N[C@@H]([C@@H](C)O)C(=O)N4CCC[C@H]4C(=O)N4C[C@H](O)C[C@H]4C(=O)N[C@@H](Cc4c[nH]c5ccccc45)C(=O)N[C@H](C(N)=O)CSCCC6=O)nn3)C(N)=O)NC1=O)C(=O)CCSC[C@H](NC(C)=O)C(=O)N[C@@H](CC(C)(C)C)C(=O)N1CCC[C@H]1C(=O)N[C@@H](CCC(=O)O)C(=O)N[C@H](C)C(=O)N1CCC[C@H]1C(=O)N[C@@H](Cc1ccc(O)cc1)C(=O)N2	Tumor necrosis factor receptor superfamily member 9/Nectin-4	reporter gene, agonist	HT-1376 coculture with reporter cells			EC50	1.07 nM
Cc1cnc(C)c(C)n1	uncharacterized protein	cAMP, agonist	HEK293 transfected with uncharacterized protein			EC50	157000 ± 30800 nM
CCCC[C@@H]1NC(=O)[C@H](Cc2ccc(O)cc2)NC(=O)[C@@H]2CCCN2C(=O)[C@H](CC(=O)O)NC(=O)[C@H](C)NC(=O)[C@H](Cc2ccccc2)NC(=O)[C@@H]2CSCCC(=O)N3CN(CN(C3)C(=O)CCSC[C@@H](C(=O)N[C@@H](CNC(=O)CCc3cn(CCOCCOCCOCCOCCOCCOCCOCCOCCOCCOCCOCCOCCOCCOCCOCCOCCOCCOCCOCCOCCOCCOCCOCCNC(=O)N[C@H]4CSCCC(=O)N5CN6CN(C5)C(=O)CCSC[C@H](NC(=O)[C@@H](CC(=O)O)NC(=O)[C@H](Cc5cccc7ccccc57)NC(=O)[C@@H]5CCCN5C4=O)C(=O)N[C@@H](CCSC)C(=O)N[C@@H](CCCCNC(=N)N)C(=O)N[C@@H](CC(=O)O)C(=O)N[C@@H](Cc4c[nH]c5ccccc45)C(=O)N[C@@H](CO)C(=O)N[C@@H]([C@@H](C)O)C(=O)N4CCC[C@H]4C(=O)N4C[C@H](O)C[C@H]4C(=O)N[C@@H](Cc4c[nH]c5ccccc45)C(=O)N[C@H](C(N)=O)CSCCC6=O)nn3)C(N)=O)NC1=O)C(=O)CCSC[C@H](NC(=O)[C@H](C)NC(C)=O)C(=O)N[C@@H]([C@@H](C)CC)C(=O)N[C@@H](CCC(=O)O)C(=O)N[C@@H](CCC(=O)O)C(=O)NCC(=O)N[C@@H](CCC(N)=O)C(=O)N[C@@H](Cc1ccc(O)cc1)C(=O)N2	Tumor necrosis factor receptor superfamily member 9/Nectin-4	reporter gene, agonist	HT-1376 coculture with reporter cells			EC50	5.25 nM
COc1nccnc1C(C)C	uncharacterized protein	cAMP, agonist	HEK293 transfected with uncharacterized protein			EC50	251000 ± 17400 nM
CCCC[C@@H]1NC(=O)[C@H](Cc2ccc(O)cc2)NC(=O)[C@@H]2CCCN2C(=O)[C@H](CC(=O)O)NC(=O)[C@H](C)NC(=O)[C@H](Cc2ccccc2)NC(=O)[C@@H]2CSCCC(=O)N3CN(CN(C3)C(=O)CCSC[C@@H](C(=O)N[C@@H](CNC(=O)Cn3cc(CCC(=O)NCCC(=O)N(C)CC(=O)N(C)CC(=O)N(C)CC(=O)N(C)CC(=O)N(C)CC(=O)N(C)CC(=O)N(C)CC(=O)N(C)CC(=O)N(C)CC(=O)N(C)CC(=O)N[C@H]4CSCCC(=O)N5CN6CN(C5)C(=O)CCSC[C@H](NC(=O)[C@@H](CC(=O)O)NC(=O)[C@H](Cc5cccc7ccccc57)NC(=O)[C@@H]5CCCN5C4=O)C(=O)N[C@@H](CCSC)C(=O)N[C@@H](CCCCNC(=N)N)C(=O)N[C@@H](CC(=O)O)C(=O)N[C@@H](Cc4c[nH]c5ccccc45)C(=O)N[C@@H](CO)C(=O)N[C@@H]([C@@H](C)O)C(=O)N4CCC[C@H]4C(=O)N4C[C@H](O)C[C@H]4C(=O)N[C@@H](Cc4c[nH]c5ccccc45)C(=O)N[C@H](C(N)=O)CSCCC6=O)nn3)C(N)=O)NC1=O)C(=O)CCSC[C@H](NC(C)=O)C(=O)N[C@@H](CC(C)(C)C)C(=O)N1CCC[C@H]1C(=O)N[C@@H](CCC(=O)O)C(=O)N[C@H](C)C(=O)N1CCC[C@H]1C(=O)N[C@@H](Cc1ccc(O)cc1)C(=O)N2	Tumor necrosis factor receptor superfamily member 9/Nectin-4	reporter gene, agonist	HT-1376 coculture with reporter cells			EC50	1.98 nM
Cn1cc2c(C(=O)O)ccc(NS(=O)(=O)c3ccc(OCC4CCC4)c(Cl)c3)c2n1	HTR2B (Homo sapiens, UniProt P41595)	antagonist				EC50	> 10000 nM

For quick reference, copied from above:
Structure (SMILES)	tested on	test	system	setting	how to read	measurement	value
CCCCC[C@H](O)/C=C/[C@H]1[C@H](O)CC(=O)[C@@H]1C/C=C\CCCC(=O)O	PTGER1 (Homo sapiens, UniProt P34995, H88A)	IP1 accumulation, agonist	AD293	EP1 H88A mutant		EC50	787 nM
